{"data": "Published values collected from several papers", "B1": "α-TTP F169A; sequence looked up; chain MAEARSQPSAGPQLNALPDHSPLLQPGLAALRRRAREAGVPLAPLPLTDSFLLRFLRARDFDLDLAWRLLKNYYKWRAECPEISADLHPRSIIGLLKAGYHGVLRSRDPTGSKVLIYRIAHWDPKVFTAYDVFRVSLITSELIVQEVETQRNGIKAIFDLEGWQFSHAAQITPSVAKKIAAVLTDSFPLKVRGIHLINEPVIFHAVFSMIKPFLTEKIKERIHMHGNNYKQSLLQHFPDILPLEYGGEEFSMEDICQEWTNFIMKSEDYLSSISESIQ", "note": "Each line is one published result; not all experiments were run side by side. ± gives the spread as reported.", "sequence of UniProt P02730 (whole entry, looked up)": "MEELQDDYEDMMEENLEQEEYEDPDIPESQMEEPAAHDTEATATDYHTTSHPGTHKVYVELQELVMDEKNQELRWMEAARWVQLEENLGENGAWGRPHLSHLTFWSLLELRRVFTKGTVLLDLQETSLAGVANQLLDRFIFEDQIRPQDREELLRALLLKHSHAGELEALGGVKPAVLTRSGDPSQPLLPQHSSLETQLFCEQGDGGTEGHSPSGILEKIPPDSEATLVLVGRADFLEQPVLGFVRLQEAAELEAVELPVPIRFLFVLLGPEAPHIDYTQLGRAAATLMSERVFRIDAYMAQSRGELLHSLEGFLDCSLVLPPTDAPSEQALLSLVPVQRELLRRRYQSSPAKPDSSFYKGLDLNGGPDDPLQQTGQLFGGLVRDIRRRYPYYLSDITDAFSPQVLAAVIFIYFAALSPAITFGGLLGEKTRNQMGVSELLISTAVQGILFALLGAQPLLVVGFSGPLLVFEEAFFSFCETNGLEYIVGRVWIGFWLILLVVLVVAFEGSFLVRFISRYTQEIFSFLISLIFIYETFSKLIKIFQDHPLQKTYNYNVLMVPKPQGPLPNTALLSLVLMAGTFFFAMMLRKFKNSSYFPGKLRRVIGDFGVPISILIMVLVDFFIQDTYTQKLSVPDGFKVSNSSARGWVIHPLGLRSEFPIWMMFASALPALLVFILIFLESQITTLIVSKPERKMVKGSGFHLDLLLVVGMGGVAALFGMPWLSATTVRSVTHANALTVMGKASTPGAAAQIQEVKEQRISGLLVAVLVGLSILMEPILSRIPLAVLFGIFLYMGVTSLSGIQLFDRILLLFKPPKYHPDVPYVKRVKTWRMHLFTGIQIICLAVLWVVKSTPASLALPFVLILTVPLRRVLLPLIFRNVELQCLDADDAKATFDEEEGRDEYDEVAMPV", "sequence of UniProt P11509 (whole entry, looked up)": "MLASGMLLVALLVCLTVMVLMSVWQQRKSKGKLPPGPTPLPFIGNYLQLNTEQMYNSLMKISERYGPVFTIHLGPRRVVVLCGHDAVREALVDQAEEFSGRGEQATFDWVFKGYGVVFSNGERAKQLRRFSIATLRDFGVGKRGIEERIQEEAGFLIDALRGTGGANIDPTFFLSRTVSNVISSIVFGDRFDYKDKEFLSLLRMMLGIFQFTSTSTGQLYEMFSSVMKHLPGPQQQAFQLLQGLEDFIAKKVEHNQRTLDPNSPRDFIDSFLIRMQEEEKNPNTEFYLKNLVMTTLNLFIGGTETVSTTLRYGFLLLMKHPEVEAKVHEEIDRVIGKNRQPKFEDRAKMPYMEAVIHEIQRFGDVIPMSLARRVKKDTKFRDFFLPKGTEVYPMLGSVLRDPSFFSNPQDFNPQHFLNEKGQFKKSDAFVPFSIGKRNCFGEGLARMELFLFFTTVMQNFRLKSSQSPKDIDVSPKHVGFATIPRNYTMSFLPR", "sequence of UniProt O54982 (whole entry, looked up)": "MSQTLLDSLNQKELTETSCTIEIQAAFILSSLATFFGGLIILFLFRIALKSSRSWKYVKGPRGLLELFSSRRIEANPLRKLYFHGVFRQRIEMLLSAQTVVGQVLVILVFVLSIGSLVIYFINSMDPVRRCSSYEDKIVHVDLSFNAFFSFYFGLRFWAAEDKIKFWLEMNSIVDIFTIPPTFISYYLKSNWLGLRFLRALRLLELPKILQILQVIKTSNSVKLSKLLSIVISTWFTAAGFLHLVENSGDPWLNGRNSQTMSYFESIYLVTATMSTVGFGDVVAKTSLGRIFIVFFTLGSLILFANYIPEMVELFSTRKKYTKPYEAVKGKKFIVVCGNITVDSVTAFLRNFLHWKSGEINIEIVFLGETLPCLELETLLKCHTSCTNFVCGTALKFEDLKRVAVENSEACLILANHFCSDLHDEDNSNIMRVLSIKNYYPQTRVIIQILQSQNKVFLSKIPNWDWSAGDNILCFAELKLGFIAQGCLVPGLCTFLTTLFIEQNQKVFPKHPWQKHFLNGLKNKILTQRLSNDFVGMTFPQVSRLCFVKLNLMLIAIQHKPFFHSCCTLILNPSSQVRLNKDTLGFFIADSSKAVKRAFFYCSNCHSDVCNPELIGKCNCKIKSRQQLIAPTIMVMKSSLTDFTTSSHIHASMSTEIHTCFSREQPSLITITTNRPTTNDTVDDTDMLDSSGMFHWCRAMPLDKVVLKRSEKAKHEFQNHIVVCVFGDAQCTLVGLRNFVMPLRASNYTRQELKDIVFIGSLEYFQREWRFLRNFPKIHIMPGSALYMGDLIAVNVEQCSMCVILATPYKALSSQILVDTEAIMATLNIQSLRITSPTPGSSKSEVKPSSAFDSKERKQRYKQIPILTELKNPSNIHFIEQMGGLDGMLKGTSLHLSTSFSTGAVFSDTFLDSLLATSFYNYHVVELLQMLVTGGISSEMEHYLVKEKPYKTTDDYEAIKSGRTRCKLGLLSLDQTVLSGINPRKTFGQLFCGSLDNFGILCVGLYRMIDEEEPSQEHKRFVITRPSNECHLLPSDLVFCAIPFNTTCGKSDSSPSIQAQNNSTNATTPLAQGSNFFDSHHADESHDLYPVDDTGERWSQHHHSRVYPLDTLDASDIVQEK", "sequence of UniProt Q58293 (whole entry, looked up)": "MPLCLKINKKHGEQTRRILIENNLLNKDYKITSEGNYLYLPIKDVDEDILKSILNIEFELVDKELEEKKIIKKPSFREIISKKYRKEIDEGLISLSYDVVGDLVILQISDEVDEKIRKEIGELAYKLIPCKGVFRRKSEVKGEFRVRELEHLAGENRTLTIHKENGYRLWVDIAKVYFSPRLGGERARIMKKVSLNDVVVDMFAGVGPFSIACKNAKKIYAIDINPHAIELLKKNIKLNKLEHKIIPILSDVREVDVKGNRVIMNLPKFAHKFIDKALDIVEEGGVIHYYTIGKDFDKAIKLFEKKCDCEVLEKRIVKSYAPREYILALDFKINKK", "sequence of UniProt O58586 (whole entry, looked up)": "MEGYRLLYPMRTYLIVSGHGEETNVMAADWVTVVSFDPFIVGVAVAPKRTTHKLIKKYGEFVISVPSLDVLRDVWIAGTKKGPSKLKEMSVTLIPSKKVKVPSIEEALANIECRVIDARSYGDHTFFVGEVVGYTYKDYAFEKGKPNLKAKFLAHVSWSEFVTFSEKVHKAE", "sequence of UniProt P61823 (whole entry, unmodified, looked up)": "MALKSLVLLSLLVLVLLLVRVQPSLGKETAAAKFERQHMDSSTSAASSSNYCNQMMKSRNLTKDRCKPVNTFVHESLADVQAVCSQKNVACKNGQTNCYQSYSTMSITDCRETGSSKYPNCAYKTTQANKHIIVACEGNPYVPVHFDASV", "sequence of UniProt Q9H4A6 (whole entry, looked up)": "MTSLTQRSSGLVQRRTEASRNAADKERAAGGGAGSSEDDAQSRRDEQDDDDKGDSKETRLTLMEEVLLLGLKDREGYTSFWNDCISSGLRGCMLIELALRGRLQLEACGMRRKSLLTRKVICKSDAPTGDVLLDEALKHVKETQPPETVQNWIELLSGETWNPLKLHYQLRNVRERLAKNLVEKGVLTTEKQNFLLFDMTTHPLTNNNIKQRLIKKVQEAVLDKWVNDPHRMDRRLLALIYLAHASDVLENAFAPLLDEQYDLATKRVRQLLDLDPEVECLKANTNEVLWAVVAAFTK", "sequence of UniProt P00520 (whole entry, looked up)": "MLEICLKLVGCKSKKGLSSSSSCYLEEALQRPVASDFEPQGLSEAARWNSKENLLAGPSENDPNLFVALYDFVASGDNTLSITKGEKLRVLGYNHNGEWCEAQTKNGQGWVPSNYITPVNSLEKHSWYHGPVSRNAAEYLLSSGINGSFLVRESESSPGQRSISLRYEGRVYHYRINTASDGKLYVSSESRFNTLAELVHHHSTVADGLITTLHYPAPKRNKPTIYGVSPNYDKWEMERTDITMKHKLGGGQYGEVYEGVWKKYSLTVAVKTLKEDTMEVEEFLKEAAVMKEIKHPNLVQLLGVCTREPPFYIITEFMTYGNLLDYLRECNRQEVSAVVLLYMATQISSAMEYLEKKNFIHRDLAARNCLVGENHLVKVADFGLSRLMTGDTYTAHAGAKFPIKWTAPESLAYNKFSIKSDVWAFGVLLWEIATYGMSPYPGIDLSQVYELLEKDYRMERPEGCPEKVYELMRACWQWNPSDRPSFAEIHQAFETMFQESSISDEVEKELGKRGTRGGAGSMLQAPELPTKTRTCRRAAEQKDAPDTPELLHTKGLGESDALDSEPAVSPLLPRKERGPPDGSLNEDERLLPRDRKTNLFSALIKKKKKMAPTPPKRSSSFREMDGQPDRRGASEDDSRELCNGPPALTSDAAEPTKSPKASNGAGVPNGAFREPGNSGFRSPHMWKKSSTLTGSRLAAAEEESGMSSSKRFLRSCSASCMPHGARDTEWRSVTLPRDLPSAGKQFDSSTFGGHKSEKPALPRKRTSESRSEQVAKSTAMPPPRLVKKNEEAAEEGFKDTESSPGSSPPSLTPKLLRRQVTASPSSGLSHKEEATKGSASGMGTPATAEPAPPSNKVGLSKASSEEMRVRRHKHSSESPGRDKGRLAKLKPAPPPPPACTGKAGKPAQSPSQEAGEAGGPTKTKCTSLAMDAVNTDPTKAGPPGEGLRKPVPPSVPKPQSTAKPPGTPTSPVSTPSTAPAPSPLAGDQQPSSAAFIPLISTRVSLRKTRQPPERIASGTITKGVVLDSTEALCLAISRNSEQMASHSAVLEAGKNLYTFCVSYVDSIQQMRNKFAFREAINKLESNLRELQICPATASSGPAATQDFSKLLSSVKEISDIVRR"}
{"Substance": "[I-].[K+]", "target": "SLC4A1 (Homo sapiens, UniProt P02730)", "assay": "36Cl exchange flux, inhibitor, Dixon plot", "test system": "human red blood cells", "conditions": "pH 12.4 external, 0 °C, internal Cl 295 mM, CAPS buffer", "Kd": "72900 µM"}
{"Substance": "C#Cc1ccc(-c2ccccc2)cc1", "target": "Cytochrome P450 2A6 (CYP2A6, Homo sapiens, UniProt P11509)", "assay": "binding, absorbance", "conditions": "pH 7.4", "Kd": "5.4 µM"}
{"Substance": "CC(=O)N[C@H]1[C@H](O[C@H]2[C@@H](O)[C@@H](CO)O[C@H](O[C@@H]3[C@H](O)[C@@H](O)[C@H](O[C@H]4[C@H](O)[C@@H](O)[C@H](O)O[C@@H]4CO)O[C@@H]3CO)[C@@H]2O)O[C@H](CO)[C@H](O)[C@@H]1O[C@@H]1O[C@H](CO)[C@H](O)[C@H](O)[C@H]1O[C@@H]1O[C@@H](C)[C@@H](O)[C@@H](O)[C@@H]1O", "target": "RNASE1 (Bos taurus, UniProt P61823, A45C)", "assay": "binding", "conditions": "pH 7.4", "Kd": "21 µM"}
{"Substance": "NC(=O)C1=CN([C@@H]2O[C@H](COP(=O)(O)OP(=O)(O)OC[C@H]3O[C@@H](n4cnc5c(N)ncnc54)[C@H](OP(=O)(O)O)[C@@H]3O)[C@@H](O)[C@H]2O)C=CC1", "target": "Uncharacterized protein PH0856 (Pyrococcus horikoshii, UniProt O58586)", "assay": "substrate, stopped-flow reductive half-reaction", "Kd": "114 µM"}
{"Substance": "CC(=O)[C@H]1CC[C@H]2[C@@H]3CCC4=CC(=O)CC[C@]4(C)[C@H]3CC[C@]12C", "target": "mouse anti-cortisol Fab 17", "assay": "native MS titration", "test system": "200 mM ammonium acetate", "conditions": "1.5% DMSO, 0.5% methanol, added: Fab 100 nM", "Kd": "13 ± 3 µM"}
{"Substance": "B1 (α-TTP F169A)", "target": "alpha-tocopherol transfer protein variants", "assay": "binding, fluorescence titration", "conditions": "added: NBD-Toc", "Kd": "0.07 µM"}
{"Substance": "CCCCCCCC(=O)OC[C@H](COP(=O)(O)O[C@@H]1[C@H](O)[C@H](O)[C@@H](OP(=O)(O)O)[C@H](OP(=O)(O)O)[C@H]1O)OC(=O)CCCCCCC", "target": "Tyrosine-protein kinase ABL1, SH2 domain (Abl1, Mus musculus, UniProt P00520)", "assay": "HSQC NMR titration", "conditions": "SH2 domain, 135 mM KCl", "Kd": "500 ± 70 µM"}
{"Substance": "C[S+](CC[C@H](N)C(=O)O)C[C@H]1O[C@@H](n2cnc3c(N)ncnc32)[C@H](O)[C@@H]1O (some centres unmarked)", "target": "tRNA (guanine(37)-N(1))-methyltransferase Trm5b (trm5b, Methanocaldococcus jannaschii, UniProt Q58293)", "assay": "binding, substrate, rapid quench burst", "conditions": "pH 8.0, 55 °C, added: tRNA(Cys)", "Kd": "0.44 ± 0.09 µM"}
{"Substance": "CCCCCCCCCCCCCCCC(=O)OC[C@H](COP(=O)(O)OC1[C@H](O)[C@H](O)C(OP(=O)(O)O)[C@H](O)[C@H]1O)OC(=O)CCCCCCCCCCCCCCC (some centres unmarked)", "target": "Golgi phosphoprotein 3 (GOLPH3, Homo sapiens, UniProt Q9H4A6)", "assay": "surface plasmon resonance", "test system": "DOPC vesicles 3 mol% lipid", "conditions": "pH 7.5, 25 °C", "Kd": "2.6 ± 0.2 µM"}
{"Substance": "CC[N+](CC)(CC)CC", "target": "Kcnu1, Slo1 N-terminal chimera (Mus musculus, UniProt O54982)", "assay": "ion current, blocker, cytosolic application", "conditions": "pH 8.5, open-channel block, added: Ca2+ 0", "Kd": "910 ± 2770 µM"}
{"Substance": "O=C(NN=Cc1ccc(C[n+]2ccccc2)cc1)c1ccc2ccc3ccc(C(=O)NN=Cc4ccc(C[n+]5ccccc5)cc4)nc3c2n1", "target": "telomeric antiparallel G4 DNA", "assay": "binding, native ESI-MS", "test system": "100 mM trimethylammonium acetate", "conditions": "1 mM KCl", "Kd": "0.0049 µM"}
{"note": "For quick reference, copied from above:"}
{"Substance": "[I-].[K+]", "target": "SLC4A1 (Homo sapiens, UniProt P02730)", "assay": "36Cl exchange flux, inhibitor, Dixon plot", "test system": "human red blood cells", "conditions": "pH 12.4 external, 0 °C, internal Cl 295 mM, CAPS buffer", "Kd": "72900 µM"}
